Assay results of several laboratories.
Every numbered part comes from another study and shows a few of its results, in no order.

Study 1
Target: Histone acetyltransferase KAT6A, winged helix 1, GST fusion (KAT6A, Homo sapiens, UniProt Q92794, residues 1-85)
Technique: protein binding microarray
Form: double-stranded DNA, one strand shown
Medium: in vitro
Tested at: not given
Setting: 8-mer, flanks averaged, mean of 2 arrays, mostly near background
Reference: not given
Reading: higher = stronger binding
Construct (chain): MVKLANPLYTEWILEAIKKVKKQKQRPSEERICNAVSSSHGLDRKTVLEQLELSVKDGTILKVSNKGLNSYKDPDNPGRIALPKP
Oligonucleotide | E-score
GTGTCGAA | -0.225
AATCAGCA | -0.25
CGGAGGCC | 0.251
CTTGATGC | -0.0947
GTGCCGGA | 0.19
AAGTTTGA | 0.00973
GGTTATTA | 0.0463
ATGTATCA | -0.143
CCTTGTAC | -0.126
ATATATTA | 0.0473
GAGTTGAA | -0.161
CCGCACGC | 0.377
AGCCTTAA | 0.0104
CCGATACA | 0.121
AAAGAGGC | -0.121
CTGACACA | -0.171
ATGGGCAG | -0.0813
ACCTAGTA | -0.0367
ATCTCGGG | 0.0566
AAGGAATT | -0.0929
ACTGCTTA | -0.144
ACATGTTA | -0.114
CTTAAATA | -0.111
CGGTCAAA | 0.124
GACGTAGA | 0.0137

Study 2
Target: Phosphate system positive regulatory protein PHO4, full length, GST-tagged (PHO4, Saccharomyces cerevisiae, UniProt P07270, residues 1-312)
Technique: competition protein-binding microarray
Form: double-stranded DNA, one strand shown
Medium: in vitro
Tested at: 2 µM
Setting: whole 60-bp probe, lowest competitor level
Added: Cbf1 competitor, 0.05 µM
Reading: higher = stronger binding
Residues (chain): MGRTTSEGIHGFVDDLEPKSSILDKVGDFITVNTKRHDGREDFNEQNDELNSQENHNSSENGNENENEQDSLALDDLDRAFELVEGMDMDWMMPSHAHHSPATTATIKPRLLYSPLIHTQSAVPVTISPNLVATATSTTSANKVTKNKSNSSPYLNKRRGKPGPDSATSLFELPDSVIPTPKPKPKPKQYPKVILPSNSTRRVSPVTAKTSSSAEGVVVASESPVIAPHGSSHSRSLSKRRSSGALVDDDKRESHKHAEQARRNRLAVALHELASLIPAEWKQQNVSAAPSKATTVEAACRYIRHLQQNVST
Oligonucleotide | fluorescence intensity
ATGTCGAAGCCGGTGCAGGTGATAGTGCTGCTTACAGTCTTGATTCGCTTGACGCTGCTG | 4980 a.u.
AGTCGAGTACGATTCACTGTGACGGTCATCCTAGATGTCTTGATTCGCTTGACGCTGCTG | 3090 a.u.
GAGGCAAACCATCACCATGTGGTGGTTTCAACATGAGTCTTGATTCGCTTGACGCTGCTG | 9700 a.u.
CTTTCATCATATTTTCATGTGTCAGAAATAACACCGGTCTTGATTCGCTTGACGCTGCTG | 5300 a.u.
TAGCCCCCTATCTCCCACATGTTGGCATCTGTGAGGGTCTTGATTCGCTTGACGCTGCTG | 9440 a.u.
AAATTACTAAGTTGTCATGTGGGTGACGCCGTATGAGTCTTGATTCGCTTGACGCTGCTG | 9330 a.u.
CTTTCCCGATCTTGATGGGTGGGTGTAGCACATTTGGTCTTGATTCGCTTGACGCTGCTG | 4940 a.u.
CTAACGAAGGTTTGACACGTGGGTGACAAGCCAAGTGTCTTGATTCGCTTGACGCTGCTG | 17600 a.u.
GCACAATTTTATGACCGCGTGTTTTCGAATTTTGACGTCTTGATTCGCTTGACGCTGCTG | 11100 a.u.
CTAACGAAGGTTTGGAATGTGGGTGACAAGCCAAGTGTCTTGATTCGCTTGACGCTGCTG | 6290 a.u.
TAGTGTACTCGCGGCCACGATCCATCTGGATAACTAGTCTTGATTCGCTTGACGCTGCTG | 6930 a.u.
AATCGAAAAATTTAGCACGTGGGACGGTAAGCATAAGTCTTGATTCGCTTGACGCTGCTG | 20000 a.u.
AAGTGCTTTGTTCTTCACGTGCTTTTTACGTCTATGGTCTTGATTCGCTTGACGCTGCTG | 14500 a.u.
GAACTTGTGCTGTGCCAGATTGAATTTTGAAAGTACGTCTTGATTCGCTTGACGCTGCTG | 5370 a.u.
TGCGCAACAACTTGTCGAGTGGGTGTATGTCTAGAAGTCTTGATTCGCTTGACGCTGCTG | 4400 a.u.
CTAACGAAGGTTTTTCACGTGTGCTACAAGCCAAGTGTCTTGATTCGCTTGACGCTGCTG | 11600 a.u.
CATACCCAACCTTGCACAGTGGGTGAAGATATTTGTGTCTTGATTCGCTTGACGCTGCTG | 4350 a.u.
CTTTCAGAGGTGGATCTCGTGGCCGATCATTTAGAGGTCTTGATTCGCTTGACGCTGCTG | 9420 a.u.

Study 3
Target: Ras GTPase-activating protein-binding protein 1, C-terminal RGG region (G3BP1, Homo sapiens, UniProt Q13283)
Chain of UniProt Q13283 (whole entry, looked up): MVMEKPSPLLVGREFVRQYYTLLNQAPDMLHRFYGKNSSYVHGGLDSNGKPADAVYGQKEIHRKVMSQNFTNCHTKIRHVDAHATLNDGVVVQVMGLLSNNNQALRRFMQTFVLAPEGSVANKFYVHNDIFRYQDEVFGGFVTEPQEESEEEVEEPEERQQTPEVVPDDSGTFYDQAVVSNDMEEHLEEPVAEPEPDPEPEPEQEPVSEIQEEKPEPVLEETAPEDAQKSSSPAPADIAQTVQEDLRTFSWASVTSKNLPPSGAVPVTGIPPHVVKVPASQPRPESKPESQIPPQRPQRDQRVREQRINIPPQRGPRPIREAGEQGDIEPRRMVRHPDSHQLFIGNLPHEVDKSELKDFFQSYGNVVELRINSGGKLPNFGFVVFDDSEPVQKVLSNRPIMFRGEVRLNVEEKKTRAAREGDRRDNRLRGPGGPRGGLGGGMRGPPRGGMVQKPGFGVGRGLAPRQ
Technique: RNA Bind-n-Seq
Form: RNA
Medium: in vitro
Tested at: 1 µM
Setting: whole 134-nt RNA, ends assumed
Added: 150 mM KCl
Reference: input library
Reading: higher = stronger binding
Oligonucleotide | log2 enrichment
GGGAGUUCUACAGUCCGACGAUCUUGACCGGAGCGGCCGUCACUUUGGUACAAUCCUCAAUUACCUGCGGGAUGGGUCUGUGCCACUGCCGGAGAGUACGAGAGAACUGGGGGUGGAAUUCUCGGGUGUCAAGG | -1.47
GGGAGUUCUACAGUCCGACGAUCCAAGUCCUGUGCUACACAUCGUAUGUACCGAAUCGGGGUGGGGAGGGGUUUGGGGAAAGUAUUAUGUUACGCCGUUCGGAUCUGCACUUCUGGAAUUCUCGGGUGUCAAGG | 2.44
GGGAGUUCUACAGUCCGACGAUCCCUCAAGUCCUGUGCUACACAUCGUAUGUACCGAAUCGGCCGGCCGGCCGGGGAAAGUAUUAUGUUACGCCGUUCGGAUCUGCACUUCCAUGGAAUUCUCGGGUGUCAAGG | -1.14
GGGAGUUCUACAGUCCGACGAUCAAGUCCUGUGCUACACAUCGUAUGUACCGAAUCGGGAAAAAAAGGGAGGGUUUGGGAAAGUAUUAUGUUACGCCGUUCGGAUCUGCACUUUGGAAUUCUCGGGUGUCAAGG | 0.961
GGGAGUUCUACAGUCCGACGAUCUUCAGUUAUUCAAGCGGAGAAAUGUUGCUACAGCAGAAGAAGAAACAGAAGAAGAAGUUAUGUCAGAUGGAGGCUUUCAUGAGGCUCAGAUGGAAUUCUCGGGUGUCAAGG | -2.56
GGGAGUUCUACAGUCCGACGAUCAAGUCCUGUGCUACACAUCGUAUGUACCGAAUCAAACCCCCAAACCCAAACCCAAAAAAGUAUUAUGUUACGCCGUUCGGAUCUGCACUUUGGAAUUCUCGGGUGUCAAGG | -1.23
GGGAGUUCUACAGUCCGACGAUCUGGCCCUGGUGGCAUGCGGGGAGGAAGAGGUGGCCUCAUGGAUCGUGGUGGUCCCGGUGGAAUGUUCAGAGGUAGCCGUGGUGGAGACAGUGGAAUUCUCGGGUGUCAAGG | 2.95
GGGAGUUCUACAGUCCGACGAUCUAACUUUAGAGGAGGAUCUGAUGGAUAUGGCAGUGGACGUGGAUUUGGGGAUGGCUAUAAUGGGUAUGGAGGAGGACAUGGAGGUGGCAAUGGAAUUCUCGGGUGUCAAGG | -1.01
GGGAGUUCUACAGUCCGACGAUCAAGUCCUGUGCUACACAUCGUAUGUACCGAAUCGGGGCCCGGGGCCCGGGGCCCGGAAAGUAUUAUGUUACGCCGUUCGGAUCUGCACUUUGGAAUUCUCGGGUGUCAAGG | -2.61
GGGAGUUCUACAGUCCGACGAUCUCGUUCCCCCCGCCACGAGAAGAAGAAGAAGGUCCGUAAAUACUGGGACGUGCCACCCCCAGGCUUUGAGCACAUCACCCCAAUGCAGUAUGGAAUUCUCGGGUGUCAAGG | 0.0274

Study 4
Target: RNA binding protein fox-1 homolog 2, RRM domain, GST-SBP tag (RBFOX2, Homo sapiens, UniProt O43251-10, residues 100-194)
Technique: RNA Bind-n-Seq
Form: RNA
Medium: in vitro
Tested at: 365 nM
Setting: natural RNA segment, single round, ends assumed
Reference: no-protein control
Reading: higher = stronger binding
Residues (chain): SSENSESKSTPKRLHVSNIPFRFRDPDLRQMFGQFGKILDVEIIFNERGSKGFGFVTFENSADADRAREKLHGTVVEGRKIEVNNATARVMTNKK
Oligonucleotide | RBNS enrichment (R)
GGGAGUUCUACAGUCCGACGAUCCCAUCGGUAGGGGCACCGAUUAGUCUACUAACAGCCAGAGGUCCAUCUAGCAGGGUGCCGGGAGGAGCUGAGCCCCCGGAGGUGGGCUCCUGGUGACGGGUGUCCAAGAAUGGAAUUCUCGGGUGCCAA | 0.471
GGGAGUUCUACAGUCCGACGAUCGCCUUCUGCAGCAGGUAGGCUUGCUUCUGUUAGCUCUGCCUGGAUGCCUUUGUUCCAGAAGGCAUCAGGCCUCUAAAGACUGUCUCACAAGUGAUGCCCUUCUGGAGACUUGGAAUUCUCGGGUGCCAA | 0.232
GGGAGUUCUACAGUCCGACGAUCUGCAGCUUUUCCAUAUCAGCUCAACCACGCCGCCAGUCCAUUCUUAAGGAACUGCCGACUAGGACUGAUGAUGCAUUUUAGCUUUGAGCUUUUGGGGGUUAUUCUACCAAUGGAAUUCUCGGGUGCCAA | 0.338
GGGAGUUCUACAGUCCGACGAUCCAUUUCAAAAGAAUUCCCCUCACAGGAGGAUGGCUGAGCAUCAAAGGAGGACAACCAUCUAUAACUUGGUGUCAUUGACAACUAUAUUAAUGUUUAUCCAGCUGCCGUAGUGGAAUUCUCGGGUGCCAA | 0.41
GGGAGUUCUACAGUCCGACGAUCAGAUCUGCCUACCUCUCUGCCUAUGCCUAAGCCUAAGCCUAAGCCUAAGCCUAAGCCUAUGCCUAUGCCUUUCAGAGUUGGGAUUCCGGGCAUGCCACACCACUGCCCAGUGGAAUUCUCGGGUGCCAA | 0.234
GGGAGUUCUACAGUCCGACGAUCUUGUUGUCCUUCUUAAUCUCAUUAUACUUCAUCAUGUUGAGUUUCCCAACAUGUGAUGACUAUUCUUGGUUGUCAUCUUGAAUACUACUAGGUGAUUAGGCCUAUUGGUAUGGAAUUCUCGGGUGCCAA | 0.236

For quick reference, copied from above (study 1):
Oligonucleotide | E-score
AAGTTTGA | 0.00973
GGTTATTA | 0.0463
ATGTATCA | -0.143
CCTTGTAC | -0.126
ATATATTA | 0.0473
GAGTTGAA | -0.161
CCGCACGC | 0.377
AGCCTTAA | 0.0104
CCGATACA | 0.121
